Experimental data gathered from unrelated publications.
Every numbered part comes from another study and shows a few of its results, in no order.
Sequence of UniProt Q15418 (whole entry, looked up): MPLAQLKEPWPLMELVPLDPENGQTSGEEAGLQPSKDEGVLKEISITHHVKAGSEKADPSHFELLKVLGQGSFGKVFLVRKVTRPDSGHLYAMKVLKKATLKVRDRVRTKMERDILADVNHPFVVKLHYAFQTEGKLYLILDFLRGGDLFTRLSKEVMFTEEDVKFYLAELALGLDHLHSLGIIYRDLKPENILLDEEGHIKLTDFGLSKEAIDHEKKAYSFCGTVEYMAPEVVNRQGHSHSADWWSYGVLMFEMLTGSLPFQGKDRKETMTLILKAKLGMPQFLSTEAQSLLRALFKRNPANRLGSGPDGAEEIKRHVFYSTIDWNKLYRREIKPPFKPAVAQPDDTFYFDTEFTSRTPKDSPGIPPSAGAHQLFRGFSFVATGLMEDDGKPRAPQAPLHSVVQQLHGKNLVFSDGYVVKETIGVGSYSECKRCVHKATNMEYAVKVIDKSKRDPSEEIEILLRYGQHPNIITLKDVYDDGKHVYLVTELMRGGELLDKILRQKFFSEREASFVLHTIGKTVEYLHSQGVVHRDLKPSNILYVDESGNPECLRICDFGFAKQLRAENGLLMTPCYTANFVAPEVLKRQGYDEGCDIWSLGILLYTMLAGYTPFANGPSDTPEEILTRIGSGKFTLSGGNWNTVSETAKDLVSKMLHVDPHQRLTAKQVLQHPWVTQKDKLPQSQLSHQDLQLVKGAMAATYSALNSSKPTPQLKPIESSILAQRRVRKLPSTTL
Sequence of UniProt O75582 (whole entry, looked up): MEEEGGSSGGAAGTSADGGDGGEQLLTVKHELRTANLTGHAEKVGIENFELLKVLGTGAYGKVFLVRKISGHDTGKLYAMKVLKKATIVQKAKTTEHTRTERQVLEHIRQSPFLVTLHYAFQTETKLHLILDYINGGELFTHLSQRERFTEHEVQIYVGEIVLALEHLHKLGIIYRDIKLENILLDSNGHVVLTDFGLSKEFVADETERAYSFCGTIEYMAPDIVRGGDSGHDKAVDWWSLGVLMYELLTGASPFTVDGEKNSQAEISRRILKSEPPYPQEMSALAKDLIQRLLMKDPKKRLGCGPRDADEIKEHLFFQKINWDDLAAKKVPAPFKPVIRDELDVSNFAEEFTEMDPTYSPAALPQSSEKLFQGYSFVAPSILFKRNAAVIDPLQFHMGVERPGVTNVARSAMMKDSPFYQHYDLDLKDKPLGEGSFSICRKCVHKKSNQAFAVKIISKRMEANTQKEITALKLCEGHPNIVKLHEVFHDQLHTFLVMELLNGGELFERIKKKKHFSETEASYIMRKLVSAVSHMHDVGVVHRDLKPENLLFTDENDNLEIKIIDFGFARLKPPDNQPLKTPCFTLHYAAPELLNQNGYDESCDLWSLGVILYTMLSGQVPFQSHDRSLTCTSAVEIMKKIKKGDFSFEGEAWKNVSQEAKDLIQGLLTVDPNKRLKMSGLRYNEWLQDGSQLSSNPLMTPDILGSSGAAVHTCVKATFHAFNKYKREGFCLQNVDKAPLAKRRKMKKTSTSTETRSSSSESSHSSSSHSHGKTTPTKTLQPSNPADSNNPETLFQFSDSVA
Sequence of UniProt O00506 (whole entry, looked up): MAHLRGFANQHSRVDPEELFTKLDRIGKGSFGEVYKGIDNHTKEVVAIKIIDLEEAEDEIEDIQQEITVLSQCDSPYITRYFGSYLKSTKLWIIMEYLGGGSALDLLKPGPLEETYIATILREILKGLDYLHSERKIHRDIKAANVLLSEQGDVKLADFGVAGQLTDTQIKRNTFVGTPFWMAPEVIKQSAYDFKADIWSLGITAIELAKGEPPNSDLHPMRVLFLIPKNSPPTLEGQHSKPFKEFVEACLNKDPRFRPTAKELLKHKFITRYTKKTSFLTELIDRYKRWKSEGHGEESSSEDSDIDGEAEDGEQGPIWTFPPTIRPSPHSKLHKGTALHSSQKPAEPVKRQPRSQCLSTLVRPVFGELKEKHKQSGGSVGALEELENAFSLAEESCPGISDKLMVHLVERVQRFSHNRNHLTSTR
Sequence of UniProt Q8TD19 (whole entry, looked up): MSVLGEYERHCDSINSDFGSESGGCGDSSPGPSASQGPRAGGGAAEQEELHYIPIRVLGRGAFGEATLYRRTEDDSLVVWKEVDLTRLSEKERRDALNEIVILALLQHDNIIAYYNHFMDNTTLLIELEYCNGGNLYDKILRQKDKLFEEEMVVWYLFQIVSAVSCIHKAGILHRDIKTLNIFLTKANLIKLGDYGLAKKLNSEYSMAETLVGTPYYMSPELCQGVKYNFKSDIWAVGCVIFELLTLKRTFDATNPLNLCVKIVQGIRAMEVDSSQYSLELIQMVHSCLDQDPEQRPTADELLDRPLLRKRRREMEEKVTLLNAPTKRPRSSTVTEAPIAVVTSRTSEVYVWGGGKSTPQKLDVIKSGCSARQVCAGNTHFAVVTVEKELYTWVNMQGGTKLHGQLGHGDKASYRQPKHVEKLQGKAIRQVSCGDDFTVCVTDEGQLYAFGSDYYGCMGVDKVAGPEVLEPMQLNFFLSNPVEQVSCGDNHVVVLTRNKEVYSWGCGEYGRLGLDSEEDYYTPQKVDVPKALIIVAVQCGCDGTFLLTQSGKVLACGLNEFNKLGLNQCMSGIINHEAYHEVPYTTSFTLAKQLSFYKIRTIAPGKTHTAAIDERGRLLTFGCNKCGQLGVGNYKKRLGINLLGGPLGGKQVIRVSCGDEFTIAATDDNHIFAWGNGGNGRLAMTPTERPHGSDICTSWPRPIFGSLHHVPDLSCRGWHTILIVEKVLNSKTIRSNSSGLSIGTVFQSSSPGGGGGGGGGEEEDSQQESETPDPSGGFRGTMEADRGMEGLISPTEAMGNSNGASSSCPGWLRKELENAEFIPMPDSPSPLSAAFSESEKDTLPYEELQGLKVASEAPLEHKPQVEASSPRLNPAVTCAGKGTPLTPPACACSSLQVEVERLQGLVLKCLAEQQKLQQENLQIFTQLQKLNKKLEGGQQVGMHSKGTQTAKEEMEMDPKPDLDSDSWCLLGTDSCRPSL
Sequence of UniProt P29320 (whole entry, looked up): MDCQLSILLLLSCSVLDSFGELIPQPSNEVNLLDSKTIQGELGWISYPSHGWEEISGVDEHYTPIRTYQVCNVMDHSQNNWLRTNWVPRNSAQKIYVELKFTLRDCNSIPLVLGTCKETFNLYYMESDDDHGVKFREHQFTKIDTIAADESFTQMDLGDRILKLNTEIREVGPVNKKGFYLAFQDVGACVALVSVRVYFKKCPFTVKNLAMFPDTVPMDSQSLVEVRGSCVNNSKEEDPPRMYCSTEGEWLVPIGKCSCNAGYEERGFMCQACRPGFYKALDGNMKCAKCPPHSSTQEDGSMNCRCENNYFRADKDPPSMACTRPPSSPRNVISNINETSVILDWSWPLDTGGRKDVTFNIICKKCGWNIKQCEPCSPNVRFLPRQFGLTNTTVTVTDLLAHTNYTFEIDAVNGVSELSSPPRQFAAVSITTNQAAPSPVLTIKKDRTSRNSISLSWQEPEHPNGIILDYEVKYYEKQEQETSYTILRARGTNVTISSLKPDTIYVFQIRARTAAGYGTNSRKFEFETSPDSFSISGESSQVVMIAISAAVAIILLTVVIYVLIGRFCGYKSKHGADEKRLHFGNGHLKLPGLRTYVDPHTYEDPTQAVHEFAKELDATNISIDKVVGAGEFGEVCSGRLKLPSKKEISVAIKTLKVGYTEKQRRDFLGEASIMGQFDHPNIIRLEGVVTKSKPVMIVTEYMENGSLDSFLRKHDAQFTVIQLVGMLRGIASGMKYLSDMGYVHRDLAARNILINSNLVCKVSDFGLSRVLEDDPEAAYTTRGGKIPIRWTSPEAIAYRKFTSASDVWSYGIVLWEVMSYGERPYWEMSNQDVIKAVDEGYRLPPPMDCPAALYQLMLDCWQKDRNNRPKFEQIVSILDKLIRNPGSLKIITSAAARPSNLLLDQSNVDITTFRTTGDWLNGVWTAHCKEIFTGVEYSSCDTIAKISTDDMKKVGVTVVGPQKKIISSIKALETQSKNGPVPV

Study 1 — effect on: enzyme activity; action: inhibitor; tested at: 0.5 µM; reference: control; measurement: remaining activity
Target: Serine/threonine-protein kinase SIK2 (SIK2, Homo sapiens, UniProt Q9H0K1)
Sequence of UniProt Q9H0K1 (whole entry, looked up): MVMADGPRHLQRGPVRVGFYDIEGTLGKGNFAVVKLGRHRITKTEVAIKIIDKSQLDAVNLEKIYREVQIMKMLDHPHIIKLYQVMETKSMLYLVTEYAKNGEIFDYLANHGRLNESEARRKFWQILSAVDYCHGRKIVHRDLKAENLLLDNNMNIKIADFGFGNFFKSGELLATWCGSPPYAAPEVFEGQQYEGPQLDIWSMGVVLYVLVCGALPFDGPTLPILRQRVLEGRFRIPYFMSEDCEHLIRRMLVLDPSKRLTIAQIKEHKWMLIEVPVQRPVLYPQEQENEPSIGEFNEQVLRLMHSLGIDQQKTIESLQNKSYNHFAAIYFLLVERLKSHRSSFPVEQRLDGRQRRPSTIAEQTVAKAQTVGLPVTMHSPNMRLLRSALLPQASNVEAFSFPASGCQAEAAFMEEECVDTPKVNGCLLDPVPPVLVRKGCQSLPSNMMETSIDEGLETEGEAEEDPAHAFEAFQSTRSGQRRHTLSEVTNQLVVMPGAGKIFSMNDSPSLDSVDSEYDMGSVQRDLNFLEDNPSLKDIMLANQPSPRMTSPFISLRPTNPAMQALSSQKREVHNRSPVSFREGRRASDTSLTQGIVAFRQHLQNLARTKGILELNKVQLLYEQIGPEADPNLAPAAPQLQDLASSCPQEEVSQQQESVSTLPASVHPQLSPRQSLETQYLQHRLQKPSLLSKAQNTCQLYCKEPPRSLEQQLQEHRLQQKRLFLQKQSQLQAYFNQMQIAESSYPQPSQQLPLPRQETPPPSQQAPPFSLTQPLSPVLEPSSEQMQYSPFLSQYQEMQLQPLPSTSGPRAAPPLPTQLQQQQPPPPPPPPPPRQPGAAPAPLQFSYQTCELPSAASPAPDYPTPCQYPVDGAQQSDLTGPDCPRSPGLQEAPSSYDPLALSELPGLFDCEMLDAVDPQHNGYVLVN
SMILES = Cn1c2ccccc2c2c3c(c4c5ccccc5n(CCC#N)c4c21)CNC3=O; result = 54.5%
SMILES = CCOC(=O)c1c(C)[nH]c(/C=C2\C(=O)Nc3ccccc32)c1C; result = 99.9%
SMILES = O=C(O)c1ccc2c3c1cccc3c(=O)n1c3ccccc3nc21; result = 92.8%
SMILES = Cc1ccc(NC(=O)c2ccc(CN3CCN(C)CC3)cc2)cc1Nc1nc(-c2cccnc2)cs1; result = 99.7%
SMILES = COc1ccc(C(=O)Nc2sc3c(c2C(N)=O)CCCC3)cc1OC; result = 102%
SMILES = Cc1cccc(-c2[nH]c(C(C)(C)C)nc2-c2ccc3c(c2)OCO3)n1; result = 91.4%
SMILES = O=C1NC(=O)C(c2cn(CCCn3ccnc3)c3ccccc23)=C1Nc1ccccc1; result = 90.3%
SMILES = COc1ccc(CNC(=O)Nc2ncc([N+](=O)[O-])s2)cc1; result = 89.4%
SMILES = COc1ccc(OC)c2c(=S)c3ccccc3[nH]c12; result = 114%
SMILES = Cn1sc(=O)n(Cc2ccccc2)c1=O; result = 98.6%
SMILES = CNC(=O)c1cc(Oc2ccc(NC(=O)Nc3ccc(Cl)c(C(F)(F)F)c3)cc2)ccn1; result = 102%
SMILES = O=c1c2ccccc2[nH]c(=S)n1CCN1CCC(=C(c2ccc(F)cc2)c2ccc(F)cc2)CC1; result = 89.7%
SMILES = N#CC(C#N)=C(N)/C(C#N)=C/c1ccc(O)cc1; result = 87.7%
SMILES = Cc1ccc(Nc2nccc(N(C)c3ccc4c(C)n(C)nc4c3)n2)cc1S(N)(=O)=O; result = 84.1%
SMILES = O=S(=O)(c1cccc2cnccc12)N1CCCNCC1; result = 97.7%
SMILES = C#Cc1cccc(Nc2ncnc3cc(OCCOC)c(OCCOC)cc23)c1; result = 86.4%

Study 2 — species: mouse; medium: microsomes or S9; tested at: 2 µM; time: 0.5 h; measurement: remaining compound
SMILES = O=S(=O)(/C(=C(\F)Oc1ccccc1)c1ccccc1)c1ccccc1; result = > 100%
SMILES = CCOC(=O)N1CCN(C(=O)C2=C(C)C(=O)OC23CCN(S(=O)(=O)CC)CC3)CC1; result = 78.8%
SMILES = Cc1csc(-c2cc(NC(=O)c3ccc(F)cc3F)c(C)s2)n1; result = 1.02%
SMILES = Cc1ccc(C2C(C(=O)NC3CCCCC3)CCC(=O)N2C)cc1 (centres unmarked); result = 9.07%
SMILES = NS(=O)(=O)c1cccc(S(=O)(=O)N2CCCc3c2cccc3S(N)(=O)=O)c1; result = 103%
SMILES = COc1cc2c(c(Br)c1OC)CN(c1cc(C(=O)O)ccc1C)C2=O; result = > 99%
SMILES = Cc1ccccc1Nc1nc(N)nc(-c2oc3ccccc3c2C)n1; result = 2.93%

Study 3 — effect on: cell-free assay; technique: competition with immobilised ligand; tested at: 1 µM; measurement: remaining binding
Compound: CN(c1ccnc(CNc2nc(Nc3ccc4c(c3)CC(=O)N4)ncc2C(F)(F)F)n1)S(C)(=O)=O
target = Serine/threonine-protein kinase 25 (STK25, Homo sapiens, UniProt O00506); result = 82%
target = Ribosomal protein S6 kinase alpha-5, N-terminal kinase domain (RPS6KA5, Homo sapiens, UniProt O75582); result = 96%
target = Ribosomal protein S6 kinase alpha-1, C-terminal kinase domain (RPS6KA1, Homo sapiens, UniProt Q15418); result = 68%
target = Ephrin type-A receptor 3 (EPHA3, Homo sapiens, UniProt P29320); result = 72%
target = Serine/threonine-protein kinase Nek9 (NEK9, Homo sapiens, UniProt Q8TD19); result = 63%

Study 4 — organism: Plasmodium berghei; action: inhibitor; cell line: Huh-7; strain: GFP-expressing, liver stage; tested at: 10 µM; time: 24 h; reference: untreated control; measurement: infection rate
SMILES = CN1CCN(CCCN2c3ccccc3Sc3ccc(C(F)(F)F)cc32)CC1; result = 38.2%
SMILES = COc1ccccc1OCC(O)CN1CCN(CC(=O)Nc2c(C)cccc2C)CC1 (centres unmarked); result = 99.7%
SMILES = CO[C@H]1C[C@H](O[C@H]2[C@H](C)[C@@H](O[C@@H]3O[C@H](C)C[C@H](N(C)C)[C@H]3OC(C)=O)[C@@H](C)C[C@@]3(CO3)C(=O)[C@H](C)[C@@H](OC(C)=O)[C@@H](C)[C@@H](C)OC(=O)[C@@H]2C)O[C@@H](C)[C@@H]1OC(C)=O; result = 72%
SMILES = C[C@H](CCC(=O)O)[C@H]1CC[C@H]2[C@@H]3[C@@H](O)C[C@@H]4C[C@H](O)CC[C@]4(C)[C@H]3CC[C@]12C; result = 86.4%
SMILES = NC(=O)c1ncn([C@@H]2O[C@H](CO)[C@@H](O)[C@H]2O)n1; result = 104%
SMILES = CC(=O)O[C@H]1C(=O)[C@@]2(C)[C@H]([C@H](OC(=O)c3ccccc3)[C@]3(O)C[C@H](OC(=O)[C@H](O)[C@@H](NC(=O)c4ccccc4)c4ccccc4)C(C)=C1C3(C)C)[C@]1(OC(C)=O)CO[C@@H]1C[C@@H]2O; result = 72%
SMILES = CCOC(=O)[C@H](CCc1ccccc1)N[C@@H](C)C(=O)N1Cc2ccccc2C[C@H]1C(=O)O; result = 67.4%
